# Assay results collected from several papers.
# Numbered parts are unrelated; each lists some results of a single study.

# Series 1
# Target: Histone acetyltransferase KAT6A, winged helix 1, GST fusion (KAT6A, Homo sapiens, UniProt Q92794, residues 1-85)
# Technique: protein binding microarray
# Molecule type: double-stranded DNA, one strand shown
# Matrix: in vitro
# Tested at: not given
# Setting: 8-mer, flanks averaged, mean of 2 arrays, mostly near background
# Relative to: not given
# Reading: higher = stronger binding
# Construct (chain): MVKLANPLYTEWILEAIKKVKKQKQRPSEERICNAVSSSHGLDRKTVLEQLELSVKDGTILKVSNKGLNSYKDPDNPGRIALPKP
Sequence,E-score
AACAGATC,-0.0889
CAAATGAG,-0.347
GGCGCTAA,0.332
CAAGCACA,-0.2
ACAACTAA,-0.0659
AGACGCAC,0.15
AAACGAAG,-0.142
ATTTGAAG,-0.00183
CGGCAACG,0.386
ACCAGCCA,-0.297
GCATAAGC,0.00692
CTCCTCAC,-0.0548
AATCGGTC,0.0819
CAGGTCGG,0.111
GCCGGTCA,0.24
CCAAGTGG,-0.188
CGCTAAAG,0.227
ACCAGGAG,-0.161
AGTTACGC,0.282
GAAATCTA,-0.125
CCGACAAC,0.0343
CGCCACCC,0.225

# Series 2
# Target: RNA binding protein fox-1 homolog 2, RRM domain, GST-SBP tag (RBFOX2, Homo sapiens, UniProt O43251-10, residues 100-194)
# Technique: RNA Bind-n-Seq
# Molecule type: RNA
# Matrix: in vitro
# Tested at: 365 nM
# Setting: natural RNA segment, single round, ends assumed
# Relative to: no-protein control
# Reading: higher = stronger binding
# Shared flanks, not repeated: GGGAGUUCUACAGUCCGACGAUC … UGGAAUUCUCGGGUGCCAA
# Residues (chain): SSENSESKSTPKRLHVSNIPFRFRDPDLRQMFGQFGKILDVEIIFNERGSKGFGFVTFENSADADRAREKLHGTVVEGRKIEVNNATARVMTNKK
Sequence,RBNS enrichment (R)
AAAAAAAAGGUCUGUUCCUGCUACCUUUUAGGACUGAAGUUUUAAGCACUGGUACCCACUGUGGGGCAAACCUGUGCUGCAGGAGGGAGCCUGGCAUACACACUCUGCAU,0.6
UUUCCCCUACCCCCAAGGAUGCCAGGAAGACGUCCACCAUUAGCCAUGUGGCAACCUUUACUUCUAUGCCUCACAAGUGCCUUUCAGAGAGCCCCAAUUCUGCUUUCCCA,0.731
UAUCCACUAUGAUUAUAAACUGUGUCUCGACCUGUGUUAUUUACAUUAGCUGCUUAAAAAAGCAUUGAGUUAAUUUUUUUAAAUAUCAACUAAAAUAUCAUAGUUCUGUG,0.472
UUUGGGCAGCUGCUCAUCAUUGAGGAAGUGGCAGGACUUGGAGGAAGUUAUGUGUGAAUGUUGUCAAGUCCUGAAGUCCUAUGAUGCACUGUGGCCCUAGAAAACGAAGA,9.42
CUUUGUUACAGUGCUAACAUCUUUUUUUUUGUGCAGGUAUCCAUGAUUAUUAAGCAGGGUGGAAGUUCAGUAUUUUGUCAUUUAAAAAGAUUAGUUAUAUAAUGUCUGCU,0.981
CUUUCCUCUUCUAUGACCCCUCUCUCCCCAGUAUUAUCUUACUUGCAAAAUGGAGACCAAAUUCUAUCCUGUGAGGCUUUUAAUUGCACCAUAGUAUGCUCUGAGUAGCU,0.428
CACUGCUCAUGUGUGGAUGCCCCUGCAACAGGCUUCCCUGUCUGUAGAGCCAGGGGUGCAAGUGCCAUCCACACUUGCAGUGAAUGGCUUUUCCUUUUAGGUUUAAGUCC,0.583
AGGUACAUGUUAAACCUUCCUCUGCCUUCUCAGCCACAUGCUUUUGGCCAUAAAUACUCAAUCUACCAGUUGGAAAGGGUAUCUAUUUCAAGAUGGGGUGGCGUUUUUCC,0.281

# Series 3
# Target: RING finger protein unkempt homolog, zinc fingers 1-6, GST-SBP tag (UNK, Homo sapiens, UniProt Q9C0B0, residues 30-357)
# Sequence of UniProt Q9C0B0 (30-357, looked up): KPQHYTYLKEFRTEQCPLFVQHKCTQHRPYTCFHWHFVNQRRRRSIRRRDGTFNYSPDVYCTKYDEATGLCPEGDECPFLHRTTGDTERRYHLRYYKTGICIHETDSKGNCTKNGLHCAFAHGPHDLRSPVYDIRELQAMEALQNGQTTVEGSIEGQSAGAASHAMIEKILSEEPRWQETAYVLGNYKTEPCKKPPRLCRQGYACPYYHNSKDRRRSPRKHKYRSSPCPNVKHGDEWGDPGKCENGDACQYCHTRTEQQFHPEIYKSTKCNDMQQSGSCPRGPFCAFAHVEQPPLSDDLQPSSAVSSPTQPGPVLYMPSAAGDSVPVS
# Technique: RNA Bind-n-Seq
# Molecule type: RNA
# Matrix: in vitro
# Tested at: not given
# Setting: RNA with constant flanks, human-mouse chimeric sites, ends assumed
# Relative to: input RNA pool
# Reading: higher = stronger binding
# Shared flanks, not repeated: GGGAGUUCUACAGUCCGACGAUC … CAACAGAGGAUUGAGCAUCA
Sequence,bound/input enrichment [ratio]
AAAUCGUGUGUGUCCAAUAUUGAAAGUGCUUUAUCUACACUCCAGUAUGUAAGCAGUAUAGUAGUUUCUUUAGAGAAUAGGUCUGCCAUUGUAAAGUAUAAUGCAAGCUUAGUCACUCCA,1.69
CAGUCCCCGUGUCCCAGUGCAGGACGAUGUGAACAAAAACUCAAAGCGGACCCUCUACUGUAGUUGAUGAUUCUCGAAAUGUGCUAUUAUUGUUUGUCUUUUUUUUUAAAAGAAAAGAGA,0.344
AACUUCGUGCAUCGGUUUCCCUUUGUAGCUGUUUCAAUUGGCUUCCUUGUGAAUAAAGAGAUGGAGUUUGGAGUUGUGUACAGUUGUGUGGAAGAUAAGAUGUACACCGGCAGGAAAGGG,0.488
AUGGAGAAGGAUUCUCUGCCCCGCUUUGUGCGCUCUGAGUUUUAUCAGGAGCUAAUCAAGUAGUCAUUUAGCCAGGCUUCCAAAAGUUGCCCUGUGAGUUGAGUUACAUCCUUUGUAGCA,1.09
CUGUGUGUGCUGAAUAAAUGGCUUGUAAAGAAGUUUUUCCAAGCUGUACCCAUGUACGUUAUUAUAGUUGCUGCAAAAUGUCUCUUAUGAUAUUGAUUUUAUUUGUUAACUGAAGGUCUC,0.662
CGAGACAAGACAUCCAGAAAUAUGAGAGGCUCCCGGAUGAAUGGGUUGCCUAGCCCCACUCACAGCGCCCACUGUAGCUUCUACCGAACCAGAACCUUGCAGGCACUGAGUAAUGAGAAG,0.126
CCCUCCCCGGGCCACCCACCCCUCCCGGCUCCCCGCCAGAGCAAGGUUUUCUUCUUAUUUCAUAGCAAAUAAGAAAAAUGUUCUACGCACAUUUUGUCCUCAGUAAAAGAGGGCCUCUGG,0.44
CAGCCUCAGAGCCCAGACUUCCUGGAUAUUACCAACCCUAAAGCGGUAUUAGAAAAUGCAUUGAGAAACUUCGCCUGUCUGACCACCGGAGAUGUGAUUGCUAUCAACUAUAAUGAAAAG,0.536

# Series 4
# Target: Sal-like protein 4, full length isoform B (SALL4, Homo sapiens, UniProt Q9UJQ4-2, residues 1-616)
# Technique: universal PBM
# Molecule type: double-stranded DNA, one strand shown
# Matrix: in vitro
# Tested at: not given
# Setting: 8-mer, flanks averaged, mean of replicates
# Reading: higher = stronger binding
# Target sequence (chain): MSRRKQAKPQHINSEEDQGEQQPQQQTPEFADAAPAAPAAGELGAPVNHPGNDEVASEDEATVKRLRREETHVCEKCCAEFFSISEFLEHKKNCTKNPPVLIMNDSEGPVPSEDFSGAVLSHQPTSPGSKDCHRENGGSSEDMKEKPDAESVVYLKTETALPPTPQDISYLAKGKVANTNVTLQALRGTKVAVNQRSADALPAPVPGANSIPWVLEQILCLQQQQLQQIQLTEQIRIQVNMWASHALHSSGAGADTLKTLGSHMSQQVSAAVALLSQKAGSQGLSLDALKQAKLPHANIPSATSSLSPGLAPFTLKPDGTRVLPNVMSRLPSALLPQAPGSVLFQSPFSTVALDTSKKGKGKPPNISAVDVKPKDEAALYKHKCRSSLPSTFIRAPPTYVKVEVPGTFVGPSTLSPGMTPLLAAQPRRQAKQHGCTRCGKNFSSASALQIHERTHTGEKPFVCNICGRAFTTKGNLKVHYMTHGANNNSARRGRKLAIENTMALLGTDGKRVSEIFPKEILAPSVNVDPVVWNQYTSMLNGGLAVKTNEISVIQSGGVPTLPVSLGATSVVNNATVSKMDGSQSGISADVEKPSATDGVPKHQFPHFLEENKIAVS
Sequence,E-score
ATACGATC,0.0326
AGTATTTC,0.174
ACGTCGGA,-0.123
GTACCCAA,-0.176
AAGCTACG,-0.0464
AATGTAGA,0.216
CGAACTAA,0.0744
AAGGTGAC,0.0212
CGGGGCCA,-0.354
CGCCTCAA,-0.0541
ACAACGAA,0.131
CATTGCAC,-0.0237
AATTCGTA,0.252
TCGTCTAA,-0.0615
ACCAACAT,0.179
ATTCTTCC,0.0396
ACTATGGA,0.111
AAAACACC,-0.0793
AGGGCTCC,-0.322

# Series 5
# Target: Interferon regulatory factor 7, full length, phosphomimetic (IRF7, Homo sapiens, UniProt Q92985, residues 1-503, S471D/S472D/S475D/S476D/S477D/S483D/S484D/S487D)
# Technique: protein-binding microarray
# Molecule type: double-stranded DNA, one strand shown
# Matrix: in vitro
# Tested at: 2200 nM top
# Setting: 60-bp whole probe
# Added: salmon DNA 0.4 mg/ml
# Relative to: random background probes
# Reading: higher = stronger binding
# Shared flanks, not repeated: GCCTAGCAC … GTCTTGATTCGCTTGACGCTGCTG
# Construct (chain): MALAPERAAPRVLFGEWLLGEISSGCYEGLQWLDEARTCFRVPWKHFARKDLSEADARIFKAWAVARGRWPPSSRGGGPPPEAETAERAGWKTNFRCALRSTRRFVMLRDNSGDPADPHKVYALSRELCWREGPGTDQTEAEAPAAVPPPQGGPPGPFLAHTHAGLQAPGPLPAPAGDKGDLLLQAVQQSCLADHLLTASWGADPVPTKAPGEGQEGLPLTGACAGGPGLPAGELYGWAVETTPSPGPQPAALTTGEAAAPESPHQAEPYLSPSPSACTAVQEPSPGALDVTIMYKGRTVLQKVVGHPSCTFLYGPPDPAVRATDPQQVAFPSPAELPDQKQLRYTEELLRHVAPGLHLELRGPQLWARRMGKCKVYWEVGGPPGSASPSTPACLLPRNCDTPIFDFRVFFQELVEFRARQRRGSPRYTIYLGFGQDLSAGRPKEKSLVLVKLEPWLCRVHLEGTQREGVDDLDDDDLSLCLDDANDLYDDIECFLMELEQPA
Sequence,fitted relative affinity
TATGTTCCTTTAGCACTTTGGTGCTAG,1.4 z-score
TTCTCTTTTATTTTTTTTATGTGCTAG,2.65 z-score
TACGATTTCAGTTCCGAGACGTGCTAG,1.98 z-score
TGGGAAATTCCTCTGAATAGGTGCTAG,-0.399 z-score
TTAGATAACAGTTTCGATTAGTGCTAG,4.66 z-score
TTAGGATTGGGGTATCGGTTAGTGCTA,0.132 z-score
GCCGATATCGGGACTGGAGACGTGCTA,-0.0988 z-score
TCAGATTTCAGTTTTCTACTGTGCTAG,2.48 z-score
TTAGATAGCGGGTATCGATTAGTGCTA,-0.341 z-score
CAGTTAATGAAAATTCTAATTGTGCTA,-0.276 z-score
TTAGAACTGAGTTTCGATCAGTGCTAG,1.72 z-score
GACGATTTCATTCTCGAGACGTGCTAG,1.37 z-score
GACGTACTGGGTTTCGGGACGTGCTAG,1.76 z-score
TCAGAACTGAGACTGGATTAGTGCTAG,-0.463 z-score
GGATTGCAACCCCTCAAAAAGTGCTAG,0.589 z-score
GACGCTTTCGGACTGGGGACGTGCTAG,4.4 z-score
TTAGGACTGCTTCGCCTTTAGTGCTAG,0.265 z-score
TTAGGTTTCGACACTGGTTTAGTGCTA,2.22 z-score
TTAGGTATGCTTATCCTTTAGTGCTAG,0.552 z-score
